Measured values from different studies.
Each line is one published result; not all experiments were run side by side. “And” joins repeats or separate records; there may be more than shown. Numbers after ± are the reported error.
GAP50: Glideosome-associated protein 50 (GAP50, Plasmodium falciparum, UniProt Q8I2X3)
Gria1/Gria2: Glutamate receptor AMPA 1/2 (Gria1/Gria2, Rattus norvegicus, UniProt P19490+P19491)
Sodium- and chloride-dependent glycine transporter 2: Sodium- and chloride-dependent glycine transporter 2 (Homo sapiens, UniProt Q9Y345)

SMILES | tested on | assay | system | setting | scale | quantity | value
O=C1C[C@H](c2nc(-c3ccc(F)c4cn[nH]c34)no2)CCCN1c1ccc(F)cc1 (racemic) | CNR2 (Homo sapiens, UniProt P34972, F87A) | cAMP, agonist, luciferase | – | – | – | Emax | 92.4%
N#CN1CC[C@H](C(=O)Nc2nc3c(s2)CN(C(=O)Cn2cc(CNC(=O)CCCC[C@@H]4SC[C@@H]5NC(=O)N[C@@H]54)nn2)CC3)C1 | EEF1A1 (Homo sapiens, UniProt P68104) | probe binding, affinity probe, neutravidin pull-down LC-MS/MS | HEK293T, cell lysate | 5 µM, 1 h, single replicate, unit not given | higher = more pulled down | iBAQ abundance | 1.09e+09 and 5.03e+08 and 3.11e+08
CCCCCC(O)/C=C/C=O (stereo not shown) | PSMB8 (Homo sapiens, UniProt P28062) | competitive isoTOP-ABPP | proteome, soluble, MDA-MB-231 | 100 µM, 60 min, together with: iodoacetamide probe | baseline: DMSO over compound-treated, higher = stronger cysteine blockade | isoTOP-ABPP competition ratio | 1.2
Cc1ccc2c(c1)C1CC(C)(N2)c2c(C)nc3ccc(C)cc3c21 (stereo not shown) | GAP50 | surface plasmon resonance | – | – | – | kon | 16.9 M⁻¹ s⁻¹
C=CC(=O)N1CCCC(n2c(=O)c3ncccc3n(Cc3ccc(Oc4ccccc4)cc3)c2=O)C1 (stereo not shown) | WAS (Homo sapiens, UniProt P42768) | thermal proteome profiling | – | 10 µM, unit not given | baseline: untreated control | melting temperature shift | -12.3
Cc1ccc(NC(=O)NC(C)(C)c2cccc(NC3=CC(=O)N(C4CCC(=O)NC4=O)C3=O)c2)cc1Cl (stereo not shown) | Cyclin-H (Homo sapiens, UniProt P51946) | degrader, quantitative proteomics, item: protein abundance | Jurkat | 1 µM, 4 h | baseline: DMSO | log2 fold change | -0.22
O=C(O)Cc1cc2c(cc1C(=O)c1ccccc1Br)OCO2 | Gria1/Gria2 | glutamate-evoked current, whole-cell patch clamp | HEK-293T | concentration not given | – | current amplitude | 116 ± 10 pA
COc1cc2ncnc(Nc3ccc(-c4ccccc4)cc3)c2cc1OC | SMUG1 (Homo sapiens, UniProt Q53HV7) | enzyme activity, activator, fluorescence | – | 2 µM | baseline: control | activity | 120 ± 30%
CC(C)=CC1OC(C)(C)C2C=C3C(=O)C(Cl)=CC(O)C3C3C(O)C4OC4C(=O)C132 (stereo not shown) | Tyrosine-protein kinase ABL1, phosphorylated (ABL1, Homo sapiens, UniProt P00519, F317I) | cell-free assay, competition with immobilised ligand | – | 10 µM | – | remaining binding | 58%
CCN1CCN(Cc2ccc(C(=O)Nc3ccc(C)c(NCc4cnc5[nH]ccc5c4OC)c3)cc2C(F)(F)F)CC1 | Tyrosine-protein kinase ABL1, non-phosphorylated (ABL1, Homo sapiens, UniProt P00519, Q252H) | binding, competition with immobilised ligand | – | 1 µM | – | remaining binding | 2.6%
C[C@]12CCC(O)CC1=CCC1C2CC[C@]2(C)/C(=N\NC(N)=S)CCC12 (stereo partly shown) | Trypanosoma cruzi | reporter mRNA translation, inhibitor, item: capped polyadenylated Renilla luciferase mRNA | cell-free extract | concentration not given | baseline: control RNA | relative translation | 114%
CC1=CC(C)=[N+]2C1=C(CCCN1CCC(O)(c3ccc(Cl)cc3)CC1)c1c(C)cc(C)n1[B-]2(F)F | Sodium- and chloride-dependent glycine transporter 2 | MS binding competition | – | 10 µM | – | remaining specific binding | 66.8 ± 10.9%
COC(=O)Cc1cc2c(cc1C(=O)c1ccccc1I)OCO2 | Gria1/Gria2 | glutamate-evoked current, whole-cell patch clamp | HEK-293T | concentration not given, pH 7.4, holding potential -60 mV, together with: 10 mM glutamate | – | current amplitude | 365 ± 33 pA
CC1=CC(C)=[N+]2C1=C(CNCCO)c1c(C)cc(C)n1[B-]2(F)F | Sodium- and chloride-dependent glycine transporter 2 | MS binding competition | – | 10 µM | – | remaining specific binding | 91.4 ± 4.3%
OC[C@@H]1[C@@H](O)[C@H](O)[C@@H](O)c2nccn21 | bglA (Thermotoga maritima, UniProt Q08638) | ITC | – | pH 5.8, 25 °C | – | -ΔS | -0.79 ± 4 kJ/mol
CC(=O)c1cnc(NS(=O)(=O)c2ccc(C(F)(F)F)c(Cl)c2)nc1 | 17-beta-hydroxysteroid dehydrogenase 13 (Homo sapiens, UniProt Q7Z5P4) | enzyme activity | human hepatocytes, HSD17B13 siRNA, culture medium | 96 h | baseline: scramble siRNA control | oxidized product ratio | 0.249 and 0.231 and 0.27 and 0.286

SMILES | tested on | assay | system | setting | scale | quantity | value
O=C(NC[C@@H](Cc1ccc(F)cc1)N1CCC(O)(C(F)(F)F)CC1)C1(c2ccc(Cl)cc2)CCCC1 | TRPA1 (Homo sapiens, UniProt O75762, V942A) | calcium influx, agonist | – | – | baseline: V942A mutant over wild type | EC50 fold change | 1.3
COC(=O)[C@@]1(C)C=C(C(=O)Nc2cccc(C(=O)Nc3ccc(Nc4nccc(-c5cccnc5)n4)c(C)c3)c2)C(=O)CC1 | MAPK8 (Homo sapiens, UniProt P45983) | enzyme activity, inhibitor | – | 0.02032 µM, 6 h, unit not given, together with: GSH 10 mM pre-incubation | baseline: vehicle | remaining activity | 0.529
CC(=O)NCCCC[C@H](NC(=O)[C@H](CCCNC(=N)N)NC(=O)[C@H](C)NC(=O)[C@H](C)NC(=O)[C@H](CCCCN)NC(=O)[C@@H](N)[C@@H](C)O)C(=O)N[C@@H](CO)C(=O)N[C@@H](C)C(=O)N1CCC[C@H]1C(=O)N[C@@H](C)C(=O)N[C@H](C(=O)O)[C@@H](C)O | YEATS domain-containing protein 4 (Homo sapiens, UniProt O95619, E109A) | differential scanning fluorimetry | – | together with: 50 µM peptide | baseline: buffer-only reference | ΔTm | 0.38 ± 0.05 °C
CCCCCCCCCCCCCCCc1cccc(OCC)c1C(=O)Nc1ccc(Cl)c(C(F)(F)F)c1 | KAT5 (Homo sapiens, UniProt Q92993) | SPR | – | 0.023 µM | higher = more binding | SPR binding response | 0.14 RU
CC(C)Oc1cc(Cl)ccc1CNc1cc(-c2ccccc2)nc2ncnn12 | GPR3 (Homo sapiens, UniProt P46089) | cAMP reporter | human cells | 1 nM | higher is more cAMP | cAMP luminescence | 38900 a.u. and 64000 a.u. and 30200 a.u. and 29800 a.u. and 36000 a.u. and 33900 a.u. and 23800 a.u. and 47300 a.u.
CC(C)[C@@H]1NC(=O)[C@H](Cc2ccccc2)NC(=O)CSC[C@@H](C(N)=O)NC(=O)[C@H](CCC(=O)O)NC(=O)[C@H](CO)NC(=O)[C@H](Cc2c[nH]c3cccc(Cl)c23)NC(=O)[C@H](C2CCCCC2)NC(=O)[C@H](C(C)C)NC(=O)[C@H](Cc2ccc(O)cc2)NC(=O)[C@H](CC(=O)O)NC(=O)[C@H](Cc2c[nH]c3ccccc23)NC(=O)[C@H](Cc2ccc(N)nc2)NC(=O)[C@H](Cc2c[nH]c3ccc(Cl)cc23)NC(=O)[C@H](CCC(=O)O)NC1=O | Interleukin-1 receptor-like 2 (IL1RL2, Homo sapiens, UniProt Q9HB29) | reporter gene (SEAP), inhibitor, HEK-Blue IL-36R reporter | HEK-Blue IL-36R cells | 1.23 µM, 6 h, together with: IL-36β 0.01 ng/mL | – | remaining activity | 2%
COC(=O)Cc1cc2c(cc1C(=O)c1cccc(I)c1)OCO2 | Gria1/Gria2 | glutamate-evoked current, whole-cell patch clamp | HEK-293T | concentration not given, glutamate alone after washout, together with: glutamate | – | current amplitude after recovery | 542 ± 31 pA
O=Cc1cc(OCc2ccccc2)ccc1B(O)O | – | reaction with N-acetyl-lysine, HPLC-MS | – | pH 10.2, together with: N-α-acetyl-lysine | – | pseudo-first-order rate constant | 0 h⁻¹
C#CCCCCNC(=O)c1ccc(N(C(=O)C=C)c2ccc(Br)cc2)cc1 | Adhesion G-protein coupled receptor D1 (ADGRD1, Homo sapiens, UniProt Q6QNK2) | mass spectrometry profiling, item: GPR133 | H460 cell lysate | 100 µM over 10 µM, UniProt Q6QNK2 | baseline: high over low concentration | reactivity ratio | 1.87
CC(C)(C(=O)N1CCC(Nc2nc3c(c(=O)[nH]2)CCCC3)CC1)c1ccc(Cl)cc1 | MRGPRD (Homo sapiens, UniProt Q8TDS7, K102A) | miniGq recruitment, agonist, BRET | HEK293T | K102A mutant | – | Hill slope | 0.92
CCCCCC=CC=C1C(=O)C=CC1CC=CCCCC(=O)O (stereo not shown) | Isoleucine--tRNA ligase, cytoplasmic (Homo sapiens, UniProt P41252) | competitive isoTOP-ABPP, item: IARS cysteine peptide | Ramos soluble proteome | 100 µM, together with: iodoacetamide probe | baseline: DMSO over compound-treated, higher = stronger cysteine blockade | isoTOP-ABPP competition ratio | 1.4
Cc1cc(C(c2ccc(Cl)cc2)c2ccc(Cl)cc2)c2nccc(C)c2c1 | GAP50 | binding, surface plasmon resonance | – | 1:1 binding model | – | koff | 0.0102 s⁻¹
CN(C)CCCSC(=S)N1CCN(C(=O)/C=C/c2coc3ccccc3c2=O)CC1 | Nucleoprotein (N, Tomato spotted wilt virus, UniProt P25999) | western blot | – | NG, 30 min, 25 °C, together with: RNA | baseline: 0 min | relative N protein level | 0.729 and 0.46 and 0.806
CN(CC1CCCN(CCc2cccc(C(F)(F)F)c2)C1)C(=O)c1ccco1 (stereo not shown) | Trypanosoma cruzi | reporter mRNA translation, inhibitor, item: capped polyadenylated Renilla luciferase mRNA | cell-free extract | concentration not given | baseline: control RNA | relative translation | 97.9%
O=C1c2sc(-c3ccc(N4CCC(CO)CC4)nc3F)nc2CCN1c1cccnc1 | TAR DNA-binding protein 43, aggregated (TARDBP, Homo sapiens, UniProt Q13148) | radioligand binding | control brain sarkosyl-insoluble extract | 4.94 nM | – | specific binding | -4 pM

Some of these lines once more:
SMILES | tested on | assay | system | setting | scale | quantity | value
Cc1cc(C(c2ccc(Cl)cc2)c2ccc(Cl)cc2)c2nccc(C)c2c1 | GAP50 | binding, surface plasmon resonance | – | 1:1 binding model | – | koff | 0.0102 s⁻¹
CN(C)CCCSC(=S)N1CCN(C(=O)/C=C/c2coc3ccccc3c2=O)CC1 | Nucleoprotein (N, Tomato spotted wilt virus, UniProt P25999) | western blot | – | NG, 30 min, 25 °C, together with: RNA | baseline: 0 min | relative N protein level | 0.729 and 0.46 and 0.806
CN(CC1CCCN(CCc2cccc(C(F)(F)F)c2)C1)C(=O)c1ccco1 (stereo not shown) | Trypanosoma cruzi | reporter mRNA translation, inhibitor, item: capped polyadenylated Renilla luciferase mRNA | cell-free extract | concentration not given | baseline: control RNA | relative translation | 97.9%
O=C1c2sc(-c3ccc(N4CCC(CO)CC4)nc3F)nc2CCN1c1cccnc1 | TAR DNA-binding protein 43, aggregated (TARDBP, Homo sapiens, UniProt Q13148) | radioligand binding | control brain sarkosyl-insoluble extract | 4.94 nM | – | specific binding | -4 pM
